# Experimental data pooled from the literature.
# Compare with care: the assays were run in different laboratories. ± marks the error that the study gave.
# Medium: plasma
SMILES,assay,system,conditions,AUC(0-inf)
CC[C@@]1(O)C(=O)OCc2c1cc1n(c2=O)Cc2cc3c(CN(C)C)c(O)ccc3nc2-1,,human patients,"oral, 8 mg weekly, day 15, geometric mean, with: pazopanib 800 mg daily",237 ng·h/mL
Oc1ccc2ccc3c4ccccc4cc4ccc1c2c43,UPLC-AMS,human,"oral, 25 ng of [14C]-BaP",21 ± 27.9 fg BaP equivalents·h/mL
CCCCCOc1ccc(-c2ccc(-c3ccc(C(=O)N[C@H]4C[C@@H](O)[C@@H](OCC[N+](C)(C)C)NC(=O)[C@@H]5[C@@H](O)[C@@H](C)CN5C(=O)[C@H]([C@@H](C)O)NC(=O)[C@H]([C@H](O)[C@@H](O)c5ccc(O)cc5)NC(=O)[C@@H]5C[C@@H](O)CN5C(=O)[C@H]([C@@H](C)O)NC4=O)cc3)cc2)cc1,,healthy adult human,"subcutaneous, 10 mg",40100 ng·h/mL
CC[C@H](C)[C@H](NC(=O)[C@H](CC(C)C)NC(=O)[C@H](Cc1c[nH]c2ccccc12)NC(=O)[C@H](CCC(N)=O)NC(=O)[C@@H](NC(=O)[C@H](Cc1ccccc1)NC(=O)[C@H](C)NC(=O)[C@H](CCCCNC(=O)COCCOCCNC(=O)COCCOCCNC(=O)CC[C@H](NC(=O)CCCCCCCCCCCCCCCCCCC(=O)O)C(=O)O)NC(=O)[C@H](CCC(N)=O)NC(=O)[C@H](C)NC(=O)[C@@H](NC(=O)[C@H](CCCCN)NC(=O)[C@H](CC(=O)O)NC(=O)[C@H](CC(C)C)NC(=O)C(C)(C)NC(=O)[C@@H](NC(=O)[C@H](CO)NC(=O)[C@H](Cc1ccc(O)cc1)NC(=O)[C@H](CC(=O)O)NC(=O)[C@H](CO)NC(=O)[C@@H](NC(=O)[C@H](Cc1ccccc1)NC(=O)[C@@H](NC(=O)CNC(=O)[C@H](CCC(=O)O)NC(=O)C(C)(C)NC(=O)[C@@H](N)Cc1ccc(O)cc1)[C@@H](C)O)[C@@H](C)O)[C@@H](C)CC)[C@@H](C)CC)C(C)C)C(=O)N[C@@H](C)C(=O)NCC(=O)NCC(=O)N1CCC[C@H]1C(=O)N[C@@H](CO)C(=O)N[C@@H](CO)C(=O)NCC(=O)N[C@@H](C)C(=O)N1CCC[C@H]1C(=O)N1CCC[C@H]1C(=O)N1CCC[C@H]1C(=O)N[C@@H](CO)C(N)=O,,"human, moderate renal impairment","subcutaneous, 5 mg single dose, eGFR 30-59, geometric mean",104000 ng·h/mL
COc1ccsc1CNCC[C@@]1(c2ccccn2)CCOC2(CCCC2)C1,,"healthy human, normal hepatic function","intravenous, 1 mg single dose, arithmetic mean",24.5 ± 7.5 ng·h/mL
COc1ccc(C[C@@H]2NC(=O)[C@H]([C@@H](C)O)NC(=O)[C@@H]3[C@@H]4CCN3C(=O)[C@@H]3Cc5cn(c6ccc(F)cc56)CCCCCCN(Cc5ccc(cc5)CCNC(=O)[C@]5(C)CCCN5C2=O)C(=O)CCC(=O)N[C@@H](C)C(=O)N[C@H](CNC(=O)CCCCC[N+](C)(C)C)C(=O)N[C@@H](Cc2cccc(c2)CNC(=O)CO4)C(=O)N3)cc1,,fasted healthy humans,"oral, 35 mg single dose, with 1800 mg Labrasol, geometric mean",0.54 µM·h
O[C@H]1CCCN[C@@H]1CCCn1cnc2c(Cl)c(Cl)ccc21,,human,"oral, 500 mg single dose, tablet, geometric mean",2340 ng·h/mL
CC[C@H](C)[C@H](NC(=O)[C@H](CC(C)C)NC(=O)[C@H](Cc1c[nH]c2ccccc12)NC(=O)[C@H](CCC(N)=O)NC(=O)[C@@H](NC(=O)[C@H](Cc1ccccc1)NC(=O)[C@H](C)NC(=O)[C@H](CCCCNC(=O)COCCOCCNC(=O)COCCOCCNC(=O)CC[C@H](NC(=O)CCCCCCCCCCCCCCCCCCC(=O)O)C(=O)O)NC(=O)[C@H](CCC(N)=O)NC(=O)[C@H](C)NC(=O)[C@@H](NC(=O)[C@H](CCCCN)NC(=O)[C@H](CC(=O)O)NC(=O)[C@H](CC(C)C)NC(=O)C(C)(C)NC(=O)[C@@H](NC(=O)[C@H](CO)NC(=O)[C@H](Cc1ccc(O)cc1)NC(=O)[C@H](CC(=O)O)NC(=O)[C@H](CO)NC(=O)[C@@H](NC(=O)[C@H](Cc1ccccc1)NC(=O)[C@@H](NC(=O)CNC(=O)[C@H](CCC(=O)O)NC(=O)C(C)(C)NC(=O)[C@@H](N)Cc1ccc(O)cc1)[C@@H](C)O)[C@@H](C)O)[C@@H](C)CC)[C@@H](C)CC)C(C)C)C(=O)N[C@@H](C)C(=O)NCC(=O)NCC(=O)N1CCC[C@H]1C(=O)N[C@@H](CO)C(=O)N[C@@H](CO)C(=O)NCC(=O)N[C@@H](C)C(=O)N1CCC[C@H]1C(=O)N1CCC[C@H]1C(=O)N1CCC[C@H]1C(=O)N[C@@H](CO)C(N)=O,,"human, severe hepatic impairment","subcutaneous, 5 mg",74600 ng·h/mL

# A few entries again:
SMILES,assay,system,conditions,AUC(0-inf)
CC[C@@]1(O)C(=O)OCc2c1cc1n(c2=O)Cc2cc3c(CN(C)C)c(O)ccc3nc2-1,,human patients,"oral, 8 mg weekly, day 15, geometric mean, with: pazopanib 800 mg daily",237 ng·h/mL
